Published values of several laboratories.
Compare with care: the assays were run in different laboratories. “And” joins repeats or separate records; there may be more than shown. ± marks the error that the study gave.
NT5E membrane-bound form: 5'-nucleotidase, membrane-bound form (NT5E, Homo sapiens, UniProt P21589)
HTR6: 5-hydroxytryptamine receptor 6 (HTR6, Homo sapiens, UniProt P50406)
CSNK1E: Casein kinase I isoform epsilon (CSNK1E, Homo sapiens, UniProt P49674)
ADORA2A: Adenosine receptor A2a (ADORA2A, Homo sapiens, UniProt P29274)
SIRT5: NAD-dependent protein deacylase sirtuin-5, mitochondrial (SIRT5, Homo sapiens, UniProt Q9NXA8)
PACC1: PACC1 (Homo sapiens, UniProt Q9H813)

| Compound | target | test | test system | conditions | inhibition |
| --- | --- | --- | --- | --- | --- |
| COC(=O)c1ccc(NC(=O)c2sc3nc(C)cc(-c4ccccc4)c3c2N)cc1 | NT5E membrane-bound form | CD73 activity, inhibitor, malachite green phosphate | MDA-MB-231 | 100 µM, together with: 200 µM AMP | 25 ± 10% |
| c1cncc(OC[C@H]2CN(CCN3CCc4ccccc43)CCO2)c1 | HTR6 | radioligand binding | – | concentration not given, together with: [3H]LSD | 8.1% |
| COc1nc(NCc2cn(-c3ccc(C(=O)Nc4ccccc4)cc3)nn2)nc(OC)n1 | Stromelysin-2 (Homo sapiens, UniProt P09238) | inhibitor | – | 0.1 µM | 0.695 ± 0.09% |
| Cc1cccc(-c2nc(C(O)C3=CCCCC3)[nH]c2-c2ccncc2)c1 (stereo not shown) | CSNK1E | kinase activity | – | 1 µM | 22% |
| O=C(Nc1cccc2c(=O)cc(-c3nnn[nH]3)oc12)c1ccc(OCCCCc2ccccc2)cc1 | Volume-regulated anion channel subunit LRRC8C, part LRRC8A IL1 chimera (LRRC8C, Homo sapiens, UniProt Q8TDW0, L136K) | ion current, inhibitor, whole-cell patch clamp | HCT LRRC8-/- cells | 10 µM, +100 mV | 84.8% and 93% and 86.3% and 93.3% |
| Cc1ccc(C(=O)Nc2nc3ccccc3[nH]2)cc1 | ADORA2A | – | – | 30 µM | 21 ± 4% |
| NC/C(=C\F)COc1cccc(Cn2c(=S)[nH]c(=O)c3[nH]cnc32)c1 | Amine oxidase copper-containing 3 (Canis lupus familiaris, UniProt A0A8I3MYY3) | inhibitor | dog adipose tissue | 3 µM | 104% |
| O=C1NC(=O)C2(N1)c1ccccc1-c1ccccc12 | GABA-A receptor alpha-1/beta-3, with gamma-2 subunit (GABRA1/GABRB3, Homo sapiens, UniProt P14867+P28472) | – | – | concentration not given, α1β3γ2 receptor | 35% |
| O=C(C#Cc1cn(Cc2ccccc2)c(=O)[nH]c1=O)NCc1cccc(F)c1 | Collagenase 3 (MMP13, Homo sapiens, UniProt P45452) | – | – | 6.5 µM | 32 ± 4% |
| COC(=O)CNC(=O)CSc1nc(C)cc(C)c1C#N | NT5E membrane-bound form | CD73 activity, inhibitor, malachite green phosphate | MDA-MB-231 | 100 µM, together with: 200 µM AMP | 21 ± 6% |
| O=C(CN1CCO[C@@H](COc2cccnc2)C1)N1CCc2ccccc21 | HTR6 | radioligand binding | – | concentration not given, together with: [3H]LSD | 21.4% |
| Cn1cc(-c2cnc3ccc(NC(=O)Nc4ccc(F)c(Br)c4)cc3n2)cn1 | MAP3K3 (Homo sapiens, UniProt Q99759) | kinase binding, KiNativ profiling, refers to: Lys1 peptide | PANC-1 lysate | 2.5 µM | 1.3% |
| CCN(Cc1ccccc1C(F)(F)F)C(=O)C1CCN(S(=O)(=O)c2ccc3[nH]ncc3c2)CC1 | human nicotinic acetylcholine receptor | radioligand binding | – | 10 µM | 8% |
| COc1cc2c3c(c1OC)-c1cc4c(cc1CC3N(C)CC2c1ccccc1)OCO4 (stereo not shown) | GABAA | binding, radioligand binding | – | concentration not given | < 50% |
| CCCCc1[nH]c2nc(N)nn2c(=O)c1Cc1cccc(Cl)c1 | CCR5 (Homo sapiens, UniProt P51681) | β-arrestin recruitment, antagonist, Tango | U2OS | 1 µM, together with: CCL3 at EC80 | 73% |
| O=C(NC1CCC1)[C@H](Cc1c[nH]c2ccccc12)NC(=O)[C@H](CCCCNC(=S)NCCB(O)O)NS(=O)(=O)c1cccc(F)c1 | SIRT5 | enzyme activity, inhibitor | – | 100 µM | 15% |
| O=C(NO)c1ccc(CN2CCCCc3ccccc32)c(F)c1 | HTR6 | radioligand binding, radioligand displacement | – | 10 µM | 16% |
| COc1cc(C(=O)NS(=O)(=O)c2ccccc2C)ccc1Cc1cn(C)c2ccc(NC(=O)OC3CCCC3)cc12 | Volume-regulated anion channel subunit LRRC8C, part LRRC8A IL1 chimera (LRRC8C, Homo sapiens, UniProt Q8TDW0, L105R) | ion current, inhibitor, whole-cell patch clamp | HCT LRRC8-/- cells | 1 µM, +100 mV | 0.986% and 7.79% and 5.2% and 4.62% and -0.434% and 8.66% |
| COC(=O)c1ccc(NC(=O)c2sc3nc(C)cc(C)c3c2N)cc1 | NT5E membrane-bound form | CD73 activity, inhibitor, malachite green phosphate | MDA-MB-231 | 100 µM, together with: 200 µM AMP | 44 ± 7% |
| Ic1cccc2cnccc12 | central GABA-A receptor (rat) | agonist site binding, radioligand binding | – | 10 µM, together with: muscimol | 8% |
| O=C(CN1CCO[C@@H](COc2ccccn2)C1)N1CCc2ccccc21 | HTR6 | radioligand binding | – | concentration not given, together with: [3H]LSD | -19.2% |
| Cc1ccc(C(=O)Nc2ccc3ccccc3c2)o1 | PACC1 | ion current, whole-cell patch-clamp | – | 10 µM | 2.54% |

| Compound | target | test | test system | conditions | inhibition |
| --- | --- | --- | --- | --- | --- |
| CN(C(=O)n1cnc(-c2ccc[n+]([O-])c2)c1)C1CCCCC1 | HTR6 | – | – | 10 µM | -20% |
| CC(C)c1noc2ncc(C(=O)c3ccccc3O)cc12 | PACC1 | ion current, inhibitor, whole-cell patch clamp | – | 10 µM | 0% and 7.2% and 1.05% and 0.68% |
| COCCOCCOCCNC(=O)CSc1nc(C)cc(-c2ccccc2)c1C#N | NT5E membrane-bound form | CD73 activity, inhibitor, malachite green phosphate | MDA-MB-231 | 100 µM, together with: 200 µM AMP | 8 ± 9% |
| Clc1cncc(OC[C@H]2CN(CCN3CCc4ccccc43)CCO2)c1 | HTR6 | radioligand binding | – | concentration not given, together with: [3H]LSD | 8.5% |
| CNc1cc(Oc2cc(C(=O)Nc3cc(N4CCN(C)CC4)cc(C(F)(F)F)c3)ccc2C)ncn1 | CDK11B (Homo sapiens, UniProt P21127) | kinase activity | – | 1 µM | -15% |
| COc1cc2c(cc1OC)CC(=O)N(CCCN(C)C[C@H]1Cc3cc(OC)c(OC)cc31)CC2 | Potassium/sodium hyperpolarization-activated cyclic nucleotide-gated channel 1 (Homo sapiens, UniProt O60741) | ion current, antagonist, whole-cell patch clamp | HEK293T cells | 50 µM | 93.15 ± 0.02% |
| O=C(NC1CCC1)[C@H](Cc1c[nH]c2ccccc12)NC(=O)[C@H](CCCCNC(=S)NCNc1cccc(B(O)O)c1)NS(=O)(=O)c1cccc(F)c1 | SIRT5 | enzyme activity, inhibitor | – | 100 µM | 17% |
| Cc1ccc(C(=O)Nc2nc3ccccc3[nH]2)cc1C | ADORA2A | – | – | 30 µM | 16 ± 4% |
| CC/C(=N\NC(=O)NCc1cccc(O)c1)c1ccc(O)c(C)c1O | Mitotic checkpoint serine/threonine-protein kinase BUB1, with BUB3 (BUB1, Homo sapiens, UniProt O43683) | kinase activity | – | 0.1 µM | -2.5% |
| c1cc(N2CCN(CCCOc3ccc(CN4CCOCC4)cc3)CC2)c2ccsc2c1 | HTR6 | – | – | 10 µM | 91.3 ± 2.4% |
| O=C(Cn1nc(C(F)(F)F)c2c1CCCC2)NC1CCC1 | Inward rectifier potassium channel (Aedes aegypti, UniProt L0EQ40) | inward K+ current, two-electrode voltage clamp | Xenopus oocytes | 25 µM, pH 7.5, holding -140 mV, together with: K+ 25 mM | ~20% |
| O=C1c2ccccc2CCN1CCCCN1CCN(c2ccccn2)CC1 | HTR6 | radioligand binding | – | concentration not given, together with: [3H]LSD | 3.6% |
| NC(=O)c1ccc(-c2nc(-c3ccc4c(c3)OCO4)c(-c3ccccn3)[nH]2)cc1 | CSNK1E | inhibitor | – | 1 µM | 56% |
| CCOC(=O)c1ccc(NC(=O)CCSc2nc(C)cc(C)c2C#N)cc1 | NT5E membrane-bound form | CD73 activity, inhibitor, malachite green phosphate | MDA-MB-231 | 100 µM, together with: 200 µM AMP | 24 ± 2% |
| COc1cc2c(cc1OC)C(=O)N(CCCCN1CCN(c3ccccc3OC)CC1)C2 | HTR6 | radioligand binding | – | concentration not given, together with: [3H]LSD | 11.3% |
| COc1cc(CNC(=O)c2sc3nc(C)cc(C)c3c2N)cc(OC)c1OC | NT5E membrane-bound form | CD73 activity, inhibitor, malachite green phosphate | MDA-MB-231 | 100 µM, together with: 200 µM AMP | -9 ± 14% |
| COC(=O)Oc1cc(OC)cc2c1C(=O)O[C@@H](C)C/C=C/C(=O)[C@@H](OC(=O)OC)[C@@H](OC(=O)OC)C[C@H]1O[C@H]21 | Mitogen-activated protein kinase kinase kinase 7, with TAB1 (MAP3K7, Homo sapiens, UniProt O43318) | kinase activity, Kinase-Glo luminescence | – | concentration not given | inactive |
| CCOC(=O)c1ccc(NC(=O)CSc2nc(C)cc(-c3ccccc3)c2C#N)cc1 | NT5E membrane-bound form | CD73 activity, inhibitor, malachite green phosphate | MDA-MB-231 | 100 µM, together with: 200 µM AMP | 26 ± 6% |
| CC[C@@H]1[C@H](F)C(=O)N[C@@H]1COc1nccc2cc(C(N)=O)c(OC)cc12 | PRKD2 (Homo sapiens, UniProt Q9BZL6) | ATP-site probe binding, ActivX profiling, refers to: PKD2 | THP-1 cell lysate | 0.01 mM, Lys1 site | 1.1% |
| Cc1cc(C)c(C#N)c(SCC(=O)Nc2ccon2)n1 | NT5E membrane-bound form | CD73 activity, inhibitor, malachite green phosphate | MDA-MB-231 | 100 µM, together with: 200 µM AMP | 38 ± 10% |
| Fc1ccc(-c2ncn(-c3ccc(-c4ccccc4)cc3)c2-c2ccncc2)cc1 | CSNK1E | inhibitor | – | 1 µM | 42% |

A few entries again:
| Compound | target | test | test system | conditions | inhibition |
| --- | --- | --- | --- | --- | --- |
| COc1cc2c3c(c1OC)-c1cc4c(cc1CC3N(C)CC2c1ccccc1)OCO4 (stereo not shown) | GABAA | binding, radioligand binding | – | concentration not given | < 50% |
| CCCCc1[nH]c2nc(N)nn2c(=O)c1Cc1cccc(Cl)c1 | CCR5 (Homo sapiens, UniProt P51681) | β-arrestin recruitment, antagonist, Tango | U2OS | 1 µM, together with: CCL3 at EC80 | 73% |
